Experimental data gathered from unrelated publications.
A part holds a random share of what one study measured.

Set 1
Target: Histone acetyltransferase KAT6A, winged helix 2, GST fusion (KAT6A, Homo sapiens, UniProt Q92794, residues 85-181)
Method: protein binding microarray
Molecule type: double-stranded DNA, one strand shown
Medium: in vitro
Tested at: not given
Setting: 8-mer, flanks averaged, mean of 2 arrays, mostly near background
Relative to: not given
Direction: higher = stronger binding
Target sequence (chain): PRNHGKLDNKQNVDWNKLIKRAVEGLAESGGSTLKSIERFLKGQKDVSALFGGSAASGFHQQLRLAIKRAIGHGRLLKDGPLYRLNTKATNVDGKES
| Oligonucleotide | E-score |
| --- | --- |
| CGATTAGC | -0.0632 |
| GTAAGCAC | -0.0219 |
| AACGTCTG | 0.0203 |
| ATCCCCAA | -0.0887 |
| GCCCGAAC | 0.14 |
| ATTATGCG | -0.0454 |
| CCCTGATA | -0.199 |
| CGAATAGC | 0.0136 |
| ACGTTTCT | -0.0748 |
| AGCGCTGG | 0.0806 |
| AGCCGAAG | 0.0682 |
| AGGAATTG | -0.22 |
| CTATCTGC | -0.122 |
| AGAGGCCC | -0.0897 |
| ATGAAAAA | 0.0377 |
| AAAACGAA | 0.0561 |
| ATGCCCGC | 0.12 |
| TCGTGTCA | 0.0224 |

Set 2
Target: PABPC1L2, full length, GST fusion (mouse, UniProt A0ABA7IW68)
Method: RNAcompete
Molecule type: RNA
Medium: in vitro
Tested at: 20 nM
Setting: 7-mer, probes averaged, single round
Relative to: mean of 7-mers
Direction: higher = stronger binding
Residues (chain): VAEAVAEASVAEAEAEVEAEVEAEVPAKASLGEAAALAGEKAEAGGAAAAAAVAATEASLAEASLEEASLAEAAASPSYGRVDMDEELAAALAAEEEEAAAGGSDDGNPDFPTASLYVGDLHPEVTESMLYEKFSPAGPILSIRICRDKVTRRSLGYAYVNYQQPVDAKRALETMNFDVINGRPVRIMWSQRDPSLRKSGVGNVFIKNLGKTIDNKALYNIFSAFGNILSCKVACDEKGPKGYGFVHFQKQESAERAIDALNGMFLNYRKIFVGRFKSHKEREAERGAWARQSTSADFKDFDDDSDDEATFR
| Oligonucleotide | 7-mer Z-score |
| --- | --- |
| GGGCGCU | 0.124 |
| UUGCCUG | -0.318 |
| ACCCUAU | -0.277 |
| GAGGGCA | 0.677 |
| UGCGAUC | -0.233 |
| GGGCGUG | 0.229 |
| GAAGGGG | 0.597 |
| AGGCAUC | -0.0609 |

Set 3
Target: Interferon regulatory factor 7, full length, phosphomimetic (IRF7, Homo sapiens, UniProt Q92985, residues 1-503, S471D/S472D/S475D/S476D/S477D/S483D/S484D/S487D)
Method: protein-binding microarray
Molecule type: double-stranded DNA, one strand shown
Medium: in vitro
Tested at: 2200 nM top
Setting: 60-bp whole probe
Added: salmon DNA 0.4 mg/ml
Relative to: random background probes
Direction: higher = stronger binding
Constant ends, left off below: GCCTAGCAC … GTCTTGATTCGCTTGACGCTGCTG
Construct (chain): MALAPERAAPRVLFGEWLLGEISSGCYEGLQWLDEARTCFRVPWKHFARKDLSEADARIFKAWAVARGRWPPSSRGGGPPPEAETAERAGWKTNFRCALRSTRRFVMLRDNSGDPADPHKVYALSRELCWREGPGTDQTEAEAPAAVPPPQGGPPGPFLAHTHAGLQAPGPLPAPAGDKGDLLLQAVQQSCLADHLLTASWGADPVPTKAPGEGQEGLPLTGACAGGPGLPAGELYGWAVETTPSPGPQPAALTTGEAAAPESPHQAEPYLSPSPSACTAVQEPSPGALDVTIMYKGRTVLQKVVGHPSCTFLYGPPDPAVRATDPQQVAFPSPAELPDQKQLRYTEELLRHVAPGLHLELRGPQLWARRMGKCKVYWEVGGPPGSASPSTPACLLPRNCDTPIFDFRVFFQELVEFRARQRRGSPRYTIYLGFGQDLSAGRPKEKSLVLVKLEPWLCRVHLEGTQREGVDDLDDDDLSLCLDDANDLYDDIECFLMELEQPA
| Oligonucleotide | fitted relative affinity [z-score] |
| --- | --- |
| GACGGTATCGGACTGGGGATGTGCTAG | -0.535 |
| GACGGTAGCGGTTTCGGGACGTGCTAG | 2.11 |
| TCAGTCCTCACTTCCTTACTGTGCTAG | 2.57 |
| GCCGGTATCCTTCTCCTGACGTGCTAG | 1.12 |
| TTGGGTATCGACACTGGGTTAGTGCTA | 0.278 |
| TGGACTGCACAAGGGCCAGTGTGCTAG | -0.496 |
| CTTCCCCTCTCATTCCAATTGTGCTAG | 2.16 |
| GACGATCTCAGACTGGAGGCGTGCTAG | -0.307 |
| TTAGGTTACGACTTTCGGTTAGTGCTA | 5.82 |
| GACGGTATCGGTCTCAGGACGTGCTAG | 0.287 |
| GACGATCTCGGTTTCGAGACGTGCTAG | 3.06 |
| GACGGTACCGGGTATCGGGACGTGCTA | -0.521 |
| TTAGAACTGAAACTGGATTAGTGCTAG | -0.0742 |
| GACGATTTCGGGTTTCGAGGCGTGCTA | 4.94 |
| TTAGAATTCAGTTTCGATTAGTGCTAG | 6.24 |

Further values, each from its own experiment
| Substance | target | assay | test system | conditions | how to read | quantity | value |
| --- | --- | --- | --- | --- | --- | --- | --- |
| PhoQ, residues 284 288 289 292 302 303 SMYGEC | PhoP, residues 12 14 15 18 19 NMSSL (Escherichia coli, UniProt P23836) | Sort-seq, item: YFP reporter | E. coli | PhoQ-PhoP variant library, added: 10 µM Mg2+ | relative to: high Mg2+ state, higher = stronger signaling | fold induction | 1.33 |
